# Published values collected from several papers.
# Lines come from different studies, so protocols differ.
# Target: Histone deacetylase 4 (HDAC4, Homo sapiens, UniProt P56524)
# Chain of UniProt P56524 (whole entry, looked up): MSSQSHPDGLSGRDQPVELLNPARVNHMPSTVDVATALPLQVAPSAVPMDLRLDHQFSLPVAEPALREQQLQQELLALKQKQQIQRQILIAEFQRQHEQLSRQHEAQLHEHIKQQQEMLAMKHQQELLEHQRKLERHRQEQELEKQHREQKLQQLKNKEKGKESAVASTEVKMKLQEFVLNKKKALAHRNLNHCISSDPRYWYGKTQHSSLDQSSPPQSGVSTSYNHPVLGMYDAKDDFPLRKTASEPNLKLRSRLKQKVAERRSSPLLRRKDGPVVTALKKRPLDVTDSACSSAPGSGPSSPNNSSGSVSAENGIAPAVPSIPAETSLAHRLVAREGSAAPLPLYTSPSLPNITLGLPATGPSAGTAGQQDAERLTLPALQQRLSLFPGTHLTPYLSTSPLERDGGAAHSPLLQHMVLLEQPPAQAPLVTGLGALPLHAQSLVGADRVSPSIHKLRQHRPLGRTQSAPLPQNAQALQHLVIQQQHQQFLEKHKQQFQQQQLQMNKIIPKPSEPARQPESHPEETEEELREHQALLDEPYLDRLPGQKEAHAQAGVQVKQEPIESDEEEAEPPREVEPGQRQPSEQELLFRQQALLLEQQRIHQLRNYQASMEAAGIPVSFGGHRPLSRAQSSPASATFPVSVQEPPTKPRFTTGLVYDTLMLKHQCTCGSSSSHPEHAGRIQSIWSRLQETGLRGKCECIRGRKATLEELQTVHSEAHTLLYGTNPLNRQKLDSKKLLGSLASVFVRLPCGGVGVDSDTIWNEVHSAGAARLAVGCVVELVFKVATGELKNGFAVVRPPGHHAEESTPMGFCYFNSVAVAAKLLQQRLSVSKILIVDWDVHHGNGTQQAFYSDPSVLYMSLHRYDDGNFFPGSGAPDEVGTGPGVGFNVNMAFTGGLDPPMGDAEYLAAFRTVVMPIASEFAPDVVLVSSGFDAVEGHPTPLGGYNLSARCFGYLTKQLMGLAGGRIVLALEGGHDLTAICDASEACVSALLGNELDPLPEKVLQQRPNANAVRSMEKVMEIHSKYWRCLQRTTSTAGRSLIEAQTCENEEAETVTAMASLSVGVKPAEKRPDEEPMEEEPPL
Compound,test,test system,setting,endpoint,result
COc1ccc(C(=O)NO)cc1NC(=O)c1ccc(-c2ccccc2)cc1,"inhibitor, competition pulldown",SW620 and MV4-11 lysate,1 h,Kd,> 30.2 µM
Nc1ccc(-c2ccc(F)cc2)cc1NC(=O)C1CCOCC1,"enzyme activity, inhibitor",,,IC50,> 33.3 µM
Cc1nc2c(F)cc(-c3nc(Nc4ccc(CNC(=O)CCCCCCC(=O)NO)cc4)ncc3F)cc2n1C(C)C,"enzyme activity, inhibitor",,,IC50,> 10 µM
O=C(CNc1cccc2c1C(=O)N(C1CCC(=O)NC1=O)C2=O)NCCOCCOCCOCC(=O)N1CCC(CNC(=O)c2cccc(-c3noc(C(F)(F)F)n3)c2)(c2nc(-c3ccccc3)cs2)CC1 (stereo not shown),,,,IC50,1.58 µM
O=C(CCc1ccc(CNC(C(=O)O)C2CCCCC2)cn1)NO (stereo not shown),"enzyme activity, inhibitor",,,IC50,> 10 µM
O=C(NO)c1cnc(NC2(c3cccc(F)c3)CCCCC2)nc1,"inhibitor, competition pulldown",SW620 and MV4-11 lysate,1 h,Kd,> 30.2 µM
CC[C@H](C)[C@@H]1NC(=O)[C@H](Cc2ccccc2C(F)(F)F)NC(=O)CCSCc2cccc(n2)CSCCCNC(=O)[C@H](CCCCCC(=O)O)NC1=O,"enzyme activity, inhibitor, fluorogenic",,,IC50,> 30 µM
O=C1CCC(N2C(=O)c3ccc(N4CC(C(=O)N5CC(CCN6CCC(CNC(=O)c7cccc(-c8noc(C(F)(F)F)n8)c7)(c7nc(-c8ccccc8)cs7)CC6)C5)C4)cc3C2=O)C(=O)N1 (stereo not shown),,,,IC50,0.45 µM
CCCCCCCCCCCCCCN(O)C(=O)CCCCC[C@@H]1NC(=O)[C@H]([C@@H](C)CC)NC(=O)[C@H](Cc2ccccc2C(F)(F)F)NC(=O)CCSCc2cccc(n2)CSCCCNC1=O,"enzyme activity, inhibitor, fluorogenic",,,IC50,> 30 µM
O=C(CCNc1cccc2c1C(=O)N(C1CCC(=O)NC1=O)C2=O)NCCOCCOCCOCCN1CCC(CNC(=O)c2cccc(-c3noc(C(F)(F)F)n3)c2)(c2nc(-c3ccccc3)cs2)CC1 (stereo not shown),,,,IC50,1.79 µM
